Measurements collected from several papers.
Lines come from different studies, so protocols differ. Numbers after ± are the reported error.

The chains behind the UniProt entries cited, without tags or fusion partners. Residues count along the entry.
UniProt P02769, 25-607 limits assumed: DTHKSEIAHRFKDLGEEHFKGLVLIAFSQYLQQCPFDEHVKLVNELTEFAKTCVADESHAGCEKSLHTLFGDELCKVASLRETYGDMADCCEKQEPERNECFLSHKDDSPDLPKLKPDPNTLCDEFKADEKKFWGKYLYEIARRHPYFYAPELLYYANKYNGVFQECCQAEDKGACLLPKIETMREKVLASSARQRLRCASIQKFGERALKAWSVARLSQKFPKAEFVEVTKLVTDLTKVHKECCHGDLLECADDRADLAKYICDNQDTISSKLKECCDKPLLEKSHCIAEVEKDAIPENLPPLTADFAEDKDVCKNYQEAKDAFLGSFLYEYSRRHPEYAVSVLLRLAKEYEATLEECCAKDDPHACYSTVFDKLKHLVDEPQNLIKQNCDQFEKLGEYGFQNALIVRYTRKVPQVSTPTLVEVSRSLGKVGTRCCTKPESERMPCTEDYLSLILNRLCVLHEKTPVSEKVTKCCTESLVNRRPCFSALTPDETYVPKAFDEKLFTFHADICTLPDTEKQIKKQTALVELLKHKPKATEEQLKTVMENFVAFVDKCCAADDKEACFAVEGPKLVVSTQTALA
UniProt P02768, 25-609 limits assumed: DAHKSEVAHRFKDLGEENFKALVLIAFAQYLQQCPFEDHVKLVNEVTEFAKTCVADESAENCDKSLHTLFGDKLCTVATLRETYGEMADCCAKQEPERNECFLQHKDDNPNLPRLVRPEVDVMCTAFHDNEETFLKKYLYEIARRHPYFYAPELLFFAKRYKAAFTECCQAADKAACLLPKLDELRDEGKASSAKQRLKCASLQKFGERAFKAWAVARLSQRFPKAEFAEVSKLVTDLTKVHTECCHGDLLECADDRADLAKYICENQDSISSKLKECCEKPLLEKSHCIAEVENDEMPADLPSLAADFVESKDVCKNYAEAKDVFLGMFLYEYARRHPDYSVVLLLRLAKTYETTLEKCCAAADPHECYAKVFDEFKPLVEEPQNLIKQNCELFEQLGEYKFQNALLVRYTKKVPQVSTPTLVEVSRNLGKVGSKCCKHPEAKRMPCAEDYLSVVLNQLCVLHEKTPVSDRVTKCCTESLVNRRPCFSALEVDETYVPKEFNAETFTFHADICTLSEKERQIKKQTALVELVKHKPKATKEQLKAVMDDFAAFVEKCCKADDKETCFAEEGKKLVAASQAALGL
UniProt P05177, whole entry: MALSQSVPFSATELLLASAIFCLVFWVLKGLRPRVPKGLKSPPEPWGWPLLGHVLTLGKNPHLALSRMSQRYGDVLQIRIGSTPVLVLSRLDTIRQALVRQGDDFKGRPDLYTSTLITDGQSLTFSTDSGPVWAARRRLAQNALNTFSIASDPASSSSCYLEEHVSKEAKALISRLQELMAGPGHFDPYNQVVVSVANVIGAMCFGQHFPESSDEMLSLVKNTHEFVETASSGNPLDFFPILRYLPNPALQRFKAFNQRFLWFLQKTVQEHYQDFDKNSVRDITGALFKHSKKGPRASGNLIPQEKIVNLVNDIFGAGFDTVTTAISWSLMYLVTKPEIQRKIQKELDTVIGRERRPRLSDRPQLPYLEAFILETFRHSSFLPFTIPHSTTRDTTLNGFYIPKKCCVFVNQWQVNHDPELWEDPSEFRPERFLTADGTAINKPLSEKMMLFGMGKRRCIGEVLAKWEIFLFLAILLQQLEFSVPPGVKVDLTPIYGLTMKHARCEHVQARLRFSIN
UniProt P08183, whole entry: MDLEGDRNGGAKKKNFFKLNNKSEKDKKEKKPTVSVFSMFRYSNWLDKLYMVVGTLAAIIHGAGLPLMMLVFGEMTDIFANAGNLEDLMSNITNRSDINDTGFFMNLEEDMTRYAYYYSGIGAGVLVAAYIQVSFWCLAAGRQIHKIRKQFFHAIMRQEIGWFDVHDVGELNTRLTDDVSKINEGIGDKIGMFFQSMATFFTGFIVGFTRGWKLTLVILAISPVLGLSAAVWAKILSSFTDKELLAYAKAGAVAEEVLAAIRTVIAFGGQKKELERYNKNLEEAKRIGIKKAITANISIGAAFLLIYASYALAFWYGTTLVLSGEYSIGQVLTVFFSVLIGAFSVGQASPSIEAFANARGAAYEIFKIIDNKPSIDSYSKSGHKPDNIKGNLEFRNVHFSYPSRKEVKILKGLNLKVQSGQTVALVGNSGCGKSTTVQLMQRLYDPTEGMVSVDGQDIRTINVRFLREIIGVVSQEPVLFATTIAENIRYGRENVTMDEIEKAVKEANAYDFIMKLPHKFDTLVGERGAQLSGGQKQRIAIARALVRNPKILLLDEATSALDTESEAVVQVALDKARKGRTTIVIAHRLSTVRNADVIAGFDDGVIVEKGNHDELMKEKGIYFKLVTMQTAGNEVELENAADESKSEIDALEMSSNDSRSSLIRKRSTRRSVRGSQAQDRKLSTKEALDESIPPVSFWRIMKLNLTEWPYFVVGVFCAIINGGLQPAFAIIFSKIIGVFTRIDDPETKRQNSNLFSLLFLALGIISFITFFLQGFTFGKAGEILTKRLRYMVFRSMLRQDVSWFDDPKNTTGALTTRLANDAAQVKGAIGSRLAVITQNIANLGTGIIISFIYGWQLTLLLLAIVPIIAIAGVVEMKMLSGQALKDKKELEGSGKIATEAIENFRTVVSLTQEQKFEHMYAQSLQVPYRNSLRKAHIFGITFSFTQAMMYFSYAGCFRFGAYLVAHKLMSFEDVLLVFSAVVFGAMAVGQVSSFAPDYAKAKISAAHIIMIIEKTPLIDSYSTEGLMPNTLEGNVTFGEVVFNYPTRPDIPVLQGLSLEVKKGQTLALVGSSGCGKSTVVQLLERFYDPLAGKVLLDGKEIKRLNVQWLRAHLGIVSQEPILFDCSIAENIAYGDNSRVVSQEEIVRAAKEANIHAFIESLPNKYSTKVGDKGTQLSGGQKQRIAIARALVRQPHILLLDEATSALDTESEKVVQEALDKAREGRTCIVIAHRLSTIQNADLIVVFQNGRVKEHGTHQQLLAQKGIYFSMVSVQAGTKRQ
UniProt P33261, whole entry: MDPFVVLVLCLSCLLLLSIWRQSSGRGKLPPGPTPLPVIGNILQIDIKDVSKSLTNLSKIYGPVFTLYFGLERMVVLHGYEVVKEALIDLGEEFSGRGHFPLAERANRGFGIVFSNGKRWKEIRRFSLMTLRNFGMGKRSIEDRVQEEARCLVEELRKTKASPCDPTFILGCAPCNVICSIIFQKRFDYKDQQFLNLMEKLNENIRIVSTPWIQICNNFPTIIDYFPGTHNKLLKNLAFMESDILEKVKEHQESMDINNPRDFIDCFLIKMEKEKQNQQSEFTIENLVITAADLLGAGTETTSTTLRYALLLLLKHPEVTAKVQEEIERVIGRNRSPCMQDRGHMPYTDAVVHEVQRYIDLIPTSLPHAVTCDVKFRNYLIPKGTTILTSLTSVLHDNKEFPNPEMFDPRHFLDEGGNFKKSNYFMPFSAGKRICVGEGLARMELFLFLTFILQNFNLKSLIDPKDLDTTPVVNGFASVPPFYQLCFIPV
UniProt Q9NY57, whole entry: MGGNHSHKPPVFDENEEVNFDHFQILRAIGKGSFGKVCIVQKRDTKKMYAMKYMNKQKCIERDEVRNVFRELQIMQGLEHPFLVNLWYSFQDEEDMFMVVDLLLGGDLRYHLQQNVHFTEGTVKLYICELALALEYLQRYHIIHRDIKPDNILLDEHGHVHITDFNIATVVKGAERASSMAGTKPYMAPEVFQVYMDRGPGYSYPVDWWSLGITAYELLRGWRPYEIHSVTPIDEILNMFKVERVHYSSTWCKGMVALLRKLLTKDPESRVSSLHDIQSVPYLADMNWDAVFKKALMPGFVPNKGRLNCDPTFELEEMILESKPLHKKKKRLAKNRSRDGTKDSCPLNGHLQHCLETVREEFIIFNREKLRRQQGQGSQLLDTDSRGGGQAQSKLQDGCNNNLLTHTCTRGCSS
UniProt Q12809, whole entry: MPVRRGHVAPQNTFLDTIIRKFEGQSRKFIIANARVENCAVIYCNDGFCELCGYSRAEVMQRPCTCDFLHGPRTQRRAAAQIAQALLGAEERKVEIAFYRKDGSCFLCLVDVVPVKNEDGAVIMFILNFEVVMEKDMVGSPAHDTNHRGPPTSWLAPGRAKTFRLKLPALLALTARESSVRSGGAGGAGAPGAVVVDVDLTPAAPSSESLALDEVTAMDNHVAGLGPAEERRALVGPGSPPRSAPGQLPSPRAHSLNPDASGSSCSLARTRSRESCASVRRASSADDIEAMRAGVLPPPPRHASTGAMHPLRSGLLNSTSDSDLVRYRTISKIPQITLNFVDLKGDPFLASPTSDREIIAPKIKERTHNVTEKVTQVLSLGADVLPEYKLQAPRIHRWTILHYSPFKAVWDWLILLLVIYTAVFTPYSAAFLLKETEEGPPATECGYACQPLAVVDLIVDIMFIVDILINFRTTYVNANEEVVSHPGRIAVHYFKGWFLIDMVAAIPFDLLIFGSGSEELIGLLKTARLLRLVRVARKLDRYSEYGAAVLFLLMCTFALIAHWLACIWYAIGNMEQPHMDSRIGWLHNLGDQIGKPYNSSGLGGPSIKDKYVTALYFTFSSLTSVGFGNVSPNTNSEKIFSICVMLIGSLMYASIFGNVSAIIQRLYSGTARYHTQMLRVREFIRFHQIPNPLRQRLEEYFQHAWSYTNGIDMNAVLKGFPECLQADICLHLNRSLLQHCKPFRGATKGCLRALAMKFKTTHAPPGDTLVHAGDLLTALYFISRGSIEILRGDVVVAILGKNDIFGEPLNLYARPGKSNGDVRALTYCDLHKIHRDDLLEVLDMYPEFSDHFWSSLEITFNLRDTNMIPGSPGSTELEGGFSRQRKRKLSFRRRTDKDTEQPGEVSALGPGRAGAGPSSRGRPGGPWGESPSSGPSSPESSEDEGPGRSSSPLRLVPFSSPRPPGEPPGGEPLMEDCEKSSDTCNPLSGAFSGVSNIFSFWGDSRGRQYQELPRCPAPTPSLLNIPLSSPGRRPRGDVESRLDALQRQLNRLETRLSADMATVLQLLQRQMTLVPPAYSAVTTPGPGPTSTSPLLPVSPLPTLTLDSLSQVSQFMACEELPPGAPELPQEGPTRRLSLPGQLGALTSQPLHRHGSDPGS

Substance	tested on	test	test system	setting	scale	measurement	value
O=C(COc1ccccc1Cl)N1CCN(c2ccc3nncn3n2)CC1	Albumin (ALB, Bos taurus, UniProt P02769)	binding, fluorescence quenching	–	pH 7.4	–	IC50	> 100 µM
CCOC(=O)OCOc1c(-c2ccc(Oc3ccc(OC(F)(F)F)cc3)cc2)c(C)nc2cc(OC)c(Cl)cc12	HepG2	ATP production	–	72 h, galactose medium	–	highest non-toxic concentration	≥ 25 µM
CC#C/C(=N\OC[C@H]1COCCN1)c1ccc2ncnc(Nc3ccc(OCc4cccc(F)c4)c(Cl)c3)c2c1	Albumin (ALB, Homo sapiens, UniProt P02768)	–	serum albumin	–	–	protein binding	> 99%
Cc1cc(Cl)c2c(c1N)C(=O)c1ccccc1C2=O	Cytochrome P450 1A2 (CYP1A2, Homo sapiens, UniProt P05177)	enzyme activity, mechanism-based inhibitor	–	pre-incubation without NADPH	–	KI	0.5 µM
CO[C@]12CC[C@@]3(C[C@@H]1C(C)(C)O)[C@H]1Cc4ccc(O)c5c4[C@@]3(CCN1CC1CC1)[C@H]2O5	ABCB1 (Homo sapiens, UniProt P08183)	P-gp ATPase activity	–	25 µM, 40 min	reference: basal activity, negative means inhibition	fold stimulation	-0.94 ± 0.7 fold
Oc1ccc(C2NCCc3c2[nH]c2ccc(Cl)cc32)cc1O (stereo not drawn)	–	dynamic light scattering	assay buffer	40 µM, with Tween 20	–	particle size	8.3 nm
CCOc1ccc2cc(-c3nn(CC4CCN(C)CC4)c4ncnc(N)c34)ccc2n1	–	–	–	concentration not given, monkey	–	half-life	> 2 h
COc1ccc(Nc2cc(C)c3cc(NC(=O)c4ccc(N(C)C)cc4)ccc3n2)cc1	–	dynamic light scattering	assay buffer	40 µM, without Tween 20	–	particle size	0.7 nm
CCCCCCCCCCCCCC(=S)NCCCC[C@H](NC(=O)OCc1ccccc1)C(=O)Nc1cccc(O)c1	MCF-10A	cell growth	–	normal cells K-Ras wild type	–	GI50	3 ± 1.2 µM
O=C(Nc1ccccc1)c1cc([N+](=O)[O-])ccc1Cl	Salmonella typhimurium	Ames plate incorporation	TA100	15 µg/plate, without metabolic activation	–	revertants	388 ± 32 revertants/plate
O=C(Cc1ccccc1)N1CCN(c2nc3ccccc3s2)CC1	Albumin (ALB, Bos taurus, UniProt P02769)	binding, fluorescence quenching	–	pH 7.4	–	IC50	> 100 µM
C=C(C)[C@@H]1[C@H]2OC(=O)[C@@H]1[C@]1(O)C[C@H]3O[C@]34C(=O)O[C@H]2[C@]14C	–	–	male NIH-NCI Swiss mice	intraperitoneal, 2 mg/kg	–	time to death	20 to 30 min
CO[C@]12CC[C@@]3(C[C@@H]1C(C)(C)O)[C@H]1Cc4ccc(O)c5c4[C@@]3(CCN1CC1CC1)[C@H]2O5	CYP2C19 (Homo sapiens, UniProt P33261)	–	human liver microsomes	10 µM	–	inhibition	33.7%
O=C(Cc1ccccc1Cl)N1CCN(c2ccc3nncn3n2)CC1	Albumin (ALB, Bos taurus, UniProt P02769)	binding, fluorescence quenching	–	pH 7.4	–	IC50	> 100 µM
C#CCCCCCC(=O)O	Escherichia coli	–	–	concentration not given	–	growth reduction	no effect
CC(=O)N1C[C@@H](COP(=O)(N(C)C)N2C[C@@H](COP(=O)(N(C)C)N3C[C@@H](COP(=O)(N(C)C)N4C[C@@H](COP(=O)(N(C)C)N5C[C@@H](COP(=O)(N(C)C)N6C[C@@H](COP(=O)(N(C)C)N7C[C@@H](COP(=O)(N(C)C)N8C[C@@H](COP(=O)(N(C)C)N9C[C@@H](COP(=O)(N(C)C)N%10C[C@@H](COP(=O)(N(C)C)N%11C[C@@H](COP(=O)(N(C)C)N%12C[C@@H](COP(=O)(N(C)C)N%13C[C@@H](COP(=O)(N(C)C)N%14C[C@@H](COP(=O)(N(C)C)N%15C[C@@H](COP(=O)(N(C)C)N%16C[C@@H](COP(=O)(N(C)C)N%17C[C@@H](COP(=O)(N(C)C)N%18C[C@@H](COP(=O)(N(C)C)N%19C[C@@H](COP(=O)(N(C)C)N%20C[C@@H](COP(=O)(N(C)C)N%21C[C@@H](COP(=O)(N(C)C)N%22C[C@@H](COP(=O)(N(C)C)N%23C[C@@H](COP(=O)(N(C)C)N%24CCN(C(=O)CCCN%25C(=O)CC(SC[C@H](NC(=O)[C@H](CCCNC(=N)N)NC(=O)[C@H](CCCNC(=N)N)NC(=O)[C@H](CCCNC(=N)N)NC(=O)[C@H](CCCNC(=N)N)NC(=O)[C@H](Cc%26ccccc%26)NC(=O)[C@H](Cc%26ccccc%26)NC(=O)[C@H](CCCNC(=N)N)NC(=O)[C@H](CCCNC(=N)N)NC(=O)[C@H](CCCNC(=N)N)NC(=O)[C@H](CCCNC(=N)N)NC(=O)[C@@H](N)CCCNC(=N)N)C(N)=O)C%25=O)CC%24)O[C@@H](n%24cnc%25c(=O)[nH]c(N)nc%25%24)C%23)O[C@@H](n%23cc(C)c(=O)[nH]c%23=O)C%22)O[C@@H](n%22ccc(N)nc%22=O)C%21)O[C@@H](n%21cnc%22c(N)ncnc%22%21)C%20)O[C@@H](n%20cc(C)c(=O)[nH]c%20=O)C%19)O[C@@H](n%19ccc(N)nc%19=O)C%18)O[C@@H](n%18cc(C)c(=O)[nH]c%18=O)C%17)O[C@@H](n%17cc(C)c(=O)[nH]c%17=O)C%16)O[C@@H](n%16cnc%17c(=O)[nH]c(N)nc%17%16)C%15)O[C@@H](n%15ccc(N)nc%15=O)C%14)O[C@@H](n%14cnc%15c(=O)[nH]c(N)nc%15%14)C%13)O[C@@H](n%13ccc(N)nc%13=O)C%12)O[C@@H](n%12ccc(N)nc%12=O)C%11)O[C@@H](n%11cnc%12c(N)ncnc%12%11)C%10)O[C@@H](n%10cc(C)c(=O)[nH]c%10=O)C9)O[C@@H](n9cc(C)c(=O)[nH]c9=O)C8)O[C@@H](n8cc(C)c(=O)[nH]c8=O)C7)O[C@@H](n7cc(C)c(=O)[nH]c7=O)C6)O[C@@H](n6cc(C)c(=O)[nH]c6=O)C5)O[C@@H](n5cnc6c(=O)[nH]c(N)nc65)C4)O[C@@H](n4cc(C)c(=O)[nH]c4=O)C3)O[C@@H](n3cnc4c(=O)[nH]c(N)nc43)C2)O[C@@H](n2cnc3c(=O)[nH]c(N)nc32)C1 (stereo partly drawn)	BCBL1 cells	–	–	16 µM, 4 h	–	cell mortality	~5%
CC[C@@H](C(N)=O)N1CCCC1=O	–	LC-MS/MS	rat, control, whole blood	intramuscular, 50 mg/kg levetiracetam, with: atropine 5 mg/kg	–	terminal half-life	3.03 h
zidovudine	Vero	cytotoxicity	–	–	–	CC50	56 µM
Cc1ccc2nc(-c3ccc4nc(-c5ccc(NC(=O)c6cccnc6)cc5)sc4c3)sc2c1S(=O)(=O)O	–	–	MOPS buffer, DMSO 2%	pH 6.5	–	solubility	> 110 µM
C[C@H](Cc1ccc(O)c(O)c1)[C@@H](C)Cc1ccc(O)c(O)c1	–	–	human skin	3% w/v solution	–	epidermal retention	~80%
C=C[C@@H]1[C@H]2CCC[C@]1(c1cccc(O)c1)CCN2CCc1ccccc1	–	–	mouse liver microsomes 0.5 mg/mL	1 µM, pH 7.4, with: NADPH	–	half-life	0.0183 h
CSCC[C@@H](C=O)NC(=O)[C@H](CC(C)C)NC(=O)[C@H](CC(C)C)NC(C)=O	HCT-8	neutral red uptake	–	48 h	–	CC50	> 100 µM
COc1cc(OC)c2ccccc2c1C=C1C(=O)NC(=S)NC1=O	human CD19+ B lymphocytes	MTS	–	concentration not given, 3 days	–	cell number	no effect
CC[C@H](C)[C@@H]([C@@H](CC(=O)N1CCC[C@H]1[C@H](OC)[C@@H](C)C(=O)NCCc1ccc(OP(=O)([O-])[O-])cc1)OC)N(C)C(=O)[C@@H](NC(=O)[C@H](C(C)C)N(C)C)C(C)C.[K+].[K+]	–	–	distilled water	23 °C	–	solubility	> 120 mg/mL
COC(=O)c1ccc(Cl)cc1NC(=O)CSc1ncc(S(=O)(=O)c2ccc(Br)cc2)c(=O)[nH]1	–	dynamic light scattering	assay buffer	40 µM, without Tween 20	–	particle size	966 nm
CCN1CCN(Cc2ccc(NC(=O)c3ccc(C)c(/C=C/c4cnc5[nH]ccc5c4OC)c3)cc2C(F)(F)F)CC1	STK32B (Homo sapiens, UniProt Q9NY57)	inhibitor, cell-based kinome screen	human cells	5 µM	reference: vehicle	log2 fold change	0.639
N#Cc1c(-c2ccc(-c3no[n+]([O-])c3C#N)s2)no[n+]1[O-]	KCNH2 (Homo sapiens, UniProt Q12809)	potassium current, automated patch clamp	HEK293, hERG-transfected	10 µM	–	inhibition	83.9%
